Measurements gathered from unrelated publications.
Every numbered part comes from another study and shows a few of its results, in no order.

Series 1
Target: Sal-like protein 4, full length isoform A (SALL4, Homo sapiens, UniProt Q9UJQ4, residues 1-1053)
Sequence of UniProt Q9UJQ4 (whole entry, looked up): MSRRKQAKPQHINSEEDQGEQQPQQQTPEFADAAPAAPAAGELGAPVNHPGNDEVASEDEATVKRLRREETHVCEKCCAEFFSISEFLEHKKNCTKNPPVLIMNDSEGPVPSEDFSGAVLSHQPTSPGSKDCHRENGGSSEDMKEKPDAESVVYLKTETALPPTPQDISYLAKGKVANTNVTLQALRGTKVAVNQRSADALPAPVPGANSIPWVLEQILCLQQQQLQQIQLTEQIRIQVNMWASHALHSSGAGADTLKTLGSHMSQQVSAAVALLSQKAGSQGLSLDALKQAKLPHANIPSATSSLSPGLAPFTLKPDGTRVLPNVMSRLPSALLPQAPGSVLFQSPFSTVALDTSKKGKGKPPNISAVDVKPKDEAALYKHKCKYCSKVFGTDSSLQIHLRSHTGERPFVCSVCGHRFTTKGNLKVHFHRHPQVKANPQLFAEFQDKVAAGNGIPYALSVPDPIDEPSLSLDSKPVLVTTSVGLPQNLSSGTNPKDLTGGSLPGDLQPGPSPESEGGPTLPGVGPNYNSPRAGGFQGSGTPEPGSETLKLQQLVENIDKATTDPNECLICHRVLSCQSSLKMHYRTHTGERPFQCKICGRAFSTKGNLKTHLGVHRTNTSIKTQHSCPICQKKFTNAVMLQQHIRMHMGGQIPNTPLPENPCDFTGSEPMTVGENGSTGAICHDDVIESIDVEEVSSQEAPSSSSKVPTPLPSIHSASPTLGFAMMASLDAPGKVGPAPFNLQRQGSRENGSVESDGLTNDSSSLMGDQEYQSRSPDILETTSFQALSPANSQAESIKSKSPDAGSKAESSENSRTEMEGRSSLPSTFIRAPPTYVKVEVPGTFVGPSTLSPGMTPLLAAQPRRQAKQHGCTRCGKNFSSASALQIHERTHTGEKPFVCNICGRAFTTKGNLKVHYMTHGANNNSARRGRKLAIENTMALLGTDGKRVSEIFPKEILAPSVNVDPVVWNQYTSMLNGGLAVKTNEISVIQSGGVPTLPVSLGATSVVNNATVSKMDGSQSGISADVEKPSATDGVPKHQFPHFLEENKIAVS
Technique: universal PBM
Form: double-stranded DNA, one strand shown
Sample: in vitro
Tested at: 600 nM
Setting: 8-mer, flanks averaged, mean of replicates
Direction: higher = stronger binding
Measurement: E-score
CGCCCCGC: -0.331
GACGACTC: -0.259
GCCGAGAC: -0.307
ACCATTCC: -0.0605
CCGCAAAC: -0.0828
GCGATGCA: -0.235
ATTTAAGA: 0.177
TATCTAAA: 0.261
CCGCTCTC: -0.292
CAAAGCCA: -0.0779
CGACACAG: -0.0817
AACGAGGC: -0.219
AATCCGAC: 0.0367
TAAACCAA: 0.209
CAAATTTA: 0.291
TTACGAAA: 0.203
GCATACAC: 0.0688
CCACGCAA: -0.12
AAGACAGA: 0.179
AGCTCGCC: -0.29
CCTCTACA: 0.0324
GGGGAGGA: -0.25
ATCACCAG: 0.0623
CTGAAGAA: -0.0672
ACGTATCC: -0.159

Series 2
Target: Ras GTPase-activating protein-binding protein 1, full length (G3BP1, Homo sapiens, UniProt Q13283)
Sequence of UniProt Q13283 (whole entry, looked up): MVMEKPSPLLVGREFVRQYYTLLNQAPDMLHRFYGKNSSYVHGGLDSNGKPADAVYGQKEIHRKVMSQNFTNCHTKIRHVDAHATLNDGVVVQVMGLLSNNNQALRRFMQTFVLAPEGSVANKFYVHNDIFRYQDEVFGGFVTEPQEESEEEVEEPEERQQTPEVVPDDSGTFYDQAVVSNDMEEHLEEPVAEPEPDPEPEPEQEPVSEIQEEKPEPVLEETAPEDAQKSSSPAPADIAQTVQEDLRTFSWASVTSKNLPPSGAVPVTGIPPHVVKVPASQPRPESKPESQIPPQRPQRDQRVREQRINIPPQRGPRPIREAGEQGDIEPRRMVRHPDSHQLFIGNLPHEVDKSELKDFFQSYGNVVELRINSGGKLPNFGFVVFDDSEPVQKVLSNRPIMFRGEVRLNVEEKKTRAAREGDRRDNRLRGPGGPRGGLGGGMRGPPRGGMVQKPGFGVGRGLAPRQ
Technique: RNA Bind-n-Seq
Form: RNA
Sample: in vitro
Tested at: 200 nM
Setting: whole 134-nt RNA, ends assumed
Together with: 150 mM KCl
Reference: input library
Direction: higher = stronger binding
Measurement: log2 enrichment
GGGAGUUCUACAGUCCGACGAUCAGUCCUGUGCUACACAUCGUAUGUACCGAAUCGGAAAAGGGGAAAAGGGGAAAAGGGAAAGUAUUAUGUUACGCCGUUCGGAUCUGCACUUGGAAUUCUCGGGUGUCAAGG: -0.137
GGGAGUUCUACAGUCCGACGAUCUGGCCCUGGUGGCAUGCGGGGAGGAAGAGGUGGCCUCAUGGAUCGUGGUGGUCCCGGUGGAAUGUUCGGAGGUGGCCGUGGUGGAGACAGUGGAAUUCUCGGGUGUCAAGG: 0.371
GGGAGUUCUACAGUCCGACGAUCUUUGCAGGAUUAAUCACUCCUGAAGAUCGGAAAUAUGGAACAACAAAUCUUCACUUAGAUGUAUCUGAUGCAGCUAAUGUCAUGGUCUAUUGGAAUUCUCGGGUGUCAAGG: -2.38
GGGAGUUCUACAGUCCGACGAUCUAGGAAAACCGUCUUCAGAUACAGUCCCUAAGCCCAAGAGAGCCCCAAAACAGAAGAAAGUAGUAGAGGCUGUAAACUCUGACUCGGAUUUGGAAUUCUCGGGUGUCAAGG: 0.202
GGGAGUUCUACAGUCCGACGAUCCAAGUCCUGUGCUACACAUCGUAUGUACCGAAUCGGGAAAGGGUUUUUGGGUGGGAAAGUAUUAUGUUACGCCGUUCGGAUCUGCACUUCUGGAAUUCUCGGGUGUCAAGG: 0.557
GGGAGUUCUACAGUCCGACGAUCUCAAGUCCUGUGCUACACAUCGUAUGUACCGAAUCGUGUGUGUGUGUGUGUGUGUAAAGUAUUAUGUUACGCCGUUCGGAUCUGCACUUCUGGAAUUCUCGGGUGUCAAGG: 0.206
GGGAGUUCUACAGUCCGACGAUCCCUGUGCUACACAUCGUAUGUACCGAAUCAAAUUUUUUUAAAUUUUUUUAAAUUUUUAAAAAAGUAUUAUGUUACGCCGUUCGGAUCUGCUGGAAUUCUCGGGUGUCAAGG: -1.05
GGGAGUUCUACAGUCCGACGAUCCAAGUCCUGUGCUACACAUCGUAUGUACCGAAUCGGGGUUGGGGUUGGGGUUGGGAAAGUAUUAUGUUACGCCGUUCGGAUCUGCACUUCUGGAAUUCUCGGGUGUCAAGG: 0.904
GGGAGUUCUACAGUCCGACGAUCAGUCCUGUGCUACACAUCGUAUGUACCGAAUCGGUUUUUGGUUUUUGGGGUUUUUGGAAAGUAUUAUGUUACGCCGUUCGGAUCUGCACUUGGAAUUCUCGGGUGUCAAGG: -1.13

Series 3
Target: RNA binding protein fox-1 homolog 2, RRM domain, GST-SBP tag (RBFOX2, Homo sapiens, UniProt O43251-10, residues 100-194)
Technique: RNA Bind-n-Seq
Form: RNA
Sample: in vitro
Tested at: 365 nM
Setting: natural RNA segment, single round, ends assumed
Reference: no-protein control
Direction: higher = stronger binding
Measurement: RBNS enrichment (R)
Construct (chain): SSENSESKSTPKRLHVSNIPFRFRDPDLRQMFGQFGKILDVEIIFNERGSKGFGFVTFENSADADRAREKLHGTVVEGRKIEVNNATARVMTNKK
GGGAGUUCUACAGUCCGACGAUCUCCUCCAGGACACCACAGUCCUUGCCCUACCACACCACAAGUAUUUGGGGGCUCAGCCCUGCCCGGUUAAGUUGACAUAUCAAGUUAACCCACUGAAGGGCUUCAGGUUUUGGAAUUCUCGGGUGCCAA: 0.185
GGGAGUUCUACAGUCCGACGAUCGAGACGGAGCACACUUGUUACGAAUCCUCCCUGCACUGCAUUCGCACAAACUGCUUCCUUUCUUGAUUCGUAGAUUUAAUAACUUACCUGAAGGGGUUUUCUUGAUAAUUUGGAAUUCUCGGGUGCCAA: 1.46
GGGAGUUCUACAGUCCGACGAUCGCCCUGGCUAUAUAUUAUAUUGGGCCAUAGAGAUCAGCAAUGUAUCAAUUAAUAGAUUAAUCCAGAGACAGGAAGGAGGAAACGAAAGCUAGAGCCUCUUUGUGACUCCAUGGAAUUCUCGGGUGCCAA: 0.36
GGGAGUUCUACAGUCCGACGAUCUAUCUCCUCUGCCUGUGACUUGGGUGGGACUGUCAUUGUGGGUAGCCAUUUAUUGAAUUCAACUUUUUGCCAAGGAAGCUUAUCUCAAGGGAAAUGCAGUUUUUUAAUAGUGGAAUUCUCGGGUGCCAA: 3.51
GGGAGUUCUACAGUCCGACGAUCGUUACAUAAUCAGUAUAUUUGGUUUCUAGAUCACUGUGCUUAUUUUGUUUCAAUCUCUGACUAAAAAUACUUAAAUUUGGUUUGUUAAUUCUUAUUUUAGAAAUUAUAAUUGGAAUUCUCGGGUGCCAA: 0.507
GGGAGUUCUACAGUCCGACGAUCCAGGAAAGAACCAUGAAAGACUUUGUGUUAGUGAAGGGUAUAACCGUGACACAGAGGCAGCUGUCAGCUGGCACCCACCUCGUCCCCCAGACCACCCUUCUUCCCAAGUGUGGAAUUCUCGGGUGCCAA: 0.376
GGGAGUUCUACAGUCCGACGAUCCAUUGUUUGAUUUCUUGUGACUAUUCUAAGAAUGAAUGCAAUCAGAUUUUAAAAGUAACUAAAUAUACUUCAGCACUUUUUUGCUUUAAACUAGAUCAUCUUAGACUUGUUGGAAUUCUCGGGUGCCAA: 0.44
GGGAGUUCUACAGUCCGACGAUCAAAACUAUAUCUGCAGGGAUGAAUCUGUAACUUAAAUUGGGCCAAUCAGAAUUGUUAUCUUUGUUCAGGUAAAAUGAGUUGCAAGAUAUUGUGGGUACUUUUGUGUGCUCUGGAAUUCUCGGGUGCCAA: 0.583

Series 4
Target: Interferon regulatory factor 5, full length, phosphomimetic (IRF5, Homo sapiens, UniProt Q13568-2, residues 1-514, S451D/S453D/S456D/S462D)
Technique: protein-binding microarray
Form: double-stranded DNA, one strand shown
Sample: in vitro
Tested at: 940 nM top
Setting: 60-bp whole probe
Together with: salmon DNA 0.4 mg/ml
Reference: random background probes
Direction: higher = stronger binding
Measurement: fitted relative affinity
Constant ends, left off below: GCCTAGCAC … GTCTTGATTCGCTTGACGCTGCTG
TTAGGTTGCGGTTTCGGTTAGTGCTAG: 7.51 z-score
TTTCCTTCCTCTTTTACCCCGTGCTAG: 2.59 z-score
TTAGGCATCGGTTTCGGTTAGTGCTAG: 6.92 z-score
TTAGGTATCGACTTTCGGTGAGTGCTA: 5.75 z-score
TCAAGTTTCATTCCTGAACTGTGCTAG: 4.82 z-score
GACGATATCGGGTTTCGAGCCGTGCTA: 1.3 z-score
GACGATTTCAGTATTGAGACGTGCTAG: 0.261 z-score
AGCTGTTTCTGTGTCACAGAGTGCTAG: 1.39 z-score
GACGAACTGAGACTGGAGACGTGCTAG: -0.0538 z-score
GACGGTAACCTTCTCCTGACGTGCTAG: 0.167 z-score
GACGCACTGGGGTATCGGGACGTGCTA: 0.491 z-score
TCACTTATTAAGATTGTGACTGTGCTA: 0.14 z-score
TTTGATATCAGTTTCGATTAGTGCTAG: 8.39 z-score
TTAGGTCTCCTTTTCCTCTAGTGCTAG: 0.63 z-score
GACGATCTCATACTGGAGACGTGCTAG: 0.0503 z-score
TCACATCTGGGTATTTTACTGTGCTAG: 0.272 z-score
TTAGGACTGGGTCTCGGTAAGTGCTAG: 0.672 z-score
TTAGGGCTGGACACTGGGTTAGTGCTA: -0.548 z-score
TCAGGTTTACCAGATCATACTGTGCTA: -0.342 z-score

Repeated from above (series 1):
AGCTCGCC: -0.29
CCTCTACA: 0.0324
GGGGAGGA: -0.25
ATCACCAG: 0.0623
CTGAAGAA: -0.0672
